Experimental data gathered from unrelated publications.
Protocols differ between the studies behind these lines. Several values in a cell are separate wells, animals, samples, runs or records. ± marks the error that the study gave.
Palmitoyl-protein thioesterase 1: Palmitoyl-protein thioesterase 1 (Homo sapiens, UniProt P50897)
HTR1E: 5-hydroxytryptamine receptor 1E (HTR1E, Homo sapiens, UniProt P28566)
Cacna1b: Voltage-dependent N-type calcium channel subunit alpha-1B (Cacna1b, Rattus norvegicus, UniProt Q02294)
Luciferin 4-monooxygenase: Luciferin 4-monooxygenase (Photinus pyralis, UniProt P08659)
DRD1: D(1A) dopamine receptor (DRD1, Homo sapiens, UniProt P21728)

SMILES = CCNNC(=O)c1ccc(CN(CC(=O)NCc2ccccc2)C(=O)c2ccc(N(C)C)cc2)cc1; target or system = QPCT (Homo sapiens, UniProt Q16769); assay = inhibitor; setting = 10 µM; inhibition = no inhibition
SMILES = CN1CCN(c2cc(-c3ccncc3)c(-c3ccc4ccccc4c3)nn2)CC1; target or system = FSHR (Homo sapiens, UniProt P23945); assay = antagonist, FLIPR; setting = 10 µM; inhibition = 19.6%
SMILES = [H]/N=C(/N)c1ccc(NCc2nc3cc(C(=O)N(CCC(=O)O)c4ccccn4)ccc3n2C)cc1; target or system = PROC (Homo sapiens, UniProt P04070); setting = concentration not given; inhibition = > 90%
SMILES = c1cnc2c(c1)ccc1cccnc12; target or system = rat aminopeptidase III (NAP-2); assay = enzyme activity; setting = 1 mM; inhibition = 90%
SMILES = CCN(O)N=Nc1ccc(S(=O)(=O)Nc2nccs2)cc1; target or system = α-glucosidase, rat intestine; assay = enzyme activity; setting = 300 µg/mL, with: 4-nitrophenyl α-D-glucopyranoside; inhibition = 62.5 ± 1.38%
SMILES = Cc1ncc([N+](=O)[O-])n1CC(O)CCl (stereo not shown); target or system = Palmitoyl-protein thioesterase 1; assay = Spectrum Collection screen; setting = concentration not given, with: substrate 20 µM; inhibition = 78%
SMILES = CCCCCCCC/C=C1/C=C(C(F)(F)F)c2cc(OC)c(OC)cc21; target or system = P4HB (Homo sapiens, UniProt P07237); assay = insulin reduction, inhibitor; setting = concentration not given, 37 °C, low micromolar preincubation; inhibition = inhibited
SMILES = CCCN(O)N=Nc1ccc(S(=O)(=O)Nc2nccs2)cc1; target or system = α-glucosidase, rat intestine; assay = enzyme activity; setting = 300 µg/mL, with: 4-nitrophenyl α-D-glucopyranoside; inhibition = 57.5 ± 0.04%
SMILES = CN(C(=O)n1cnc(-c2ccc[n+]([O-])c2)c1)C1CCCCC1; target or system = PTAFR (Homo sapiens, UniProt P25105); setting = 10 µM; inhibition = 0.21%
SMILES = Cc1cc(NS(=O)(=O)c2ccc(N=NN(C)O)cc2)no1; target or system = α-glucosidase, rat intestine; assay = enzyme activity; setting = 240 µg/mL, with: 4-nitrophenyl α-D-glucopyranoside; inhibition = 60%
SMILES = COc1ccc2c(c1)C(=O)N(CCN1CCN(c3ccccc3OC)CC1)C2; target or system = HTR1E; assay = radioligand binding; setting = concentration not given, with: [3H]5-HT; inhibition = -1.5%
SMILES = CCCN(O)N=Nc1ccc(S(=O)(=O)Nc2cc(C)on2)cc1; target or system = α-glucosidase, rat intestine; assay = enzyme activity; setting = 300 µg/mL, with: 4-nitrophenyl α-D-glucopyranoside; inhibition = 62.5 ± 0.5%
SMILES = Cc1cccc(C(=O)O)c1; target or system = THP-1; assay = pyroptotic LDH release; setting = 2 µM, 40 min, with: LPS then nigericin; inhibition = -5.85%
SMILES = CCCCC1C(=O)N(c2ccccc2)N(c2ccccc2)C1=O; target or system = cyclooxygenase, rabbit; system = distal colon mucosa microsomes; setting = 10 µM; inhibition = 90%
SMILES = CCS(=O)(=O)c1nc(S(=O)(=O)c2ccccc2Cl)c(N2CCN(C)C(=O)[C@H]2C)s1; target or system = SLC6A2 (Homo sapiens, UniProt P23975); setting = 10 µM; inhibition = 18.8%
SMILES = O=C(Nc1cccc2c(=O)cc(-c3nnn[nH]3)oc12)c1ccc(OCCCCc2ccccc2)cc1; target or system = Volume-regulated anion channel subunit LRRC8C, part LRRC8A IL1 chimera (LRRC8C, Homo sapiens, UniProt Q8TDW0, E6A); assay = ion current, inhibitor, whole-cell patch clamp; system = HCT LRRC8-/- cells; setting = 10 µM, -100 mV; inhibition = 93.9% and 92% and 87.5% and 94.5%
SMILES = CC(C)c1noc2ncc(C(=O)c3ccccc3O)cc12; target or system = Cacna1b; assay = ion current, inhibitor, whole-cell patch clamp; setting = 10 µM; inhibition = 0.93% and 0% and 3.4%
SMILES = Cn1cncc1[C@@](N)(c1ccc(Cl)cc1)c1ccc2c(c1)c(-c1cccc(Cl)c1)cc(=O)n2C; target or system = Protein farnesyltransferase (Homo sapiens, UniProt P49354+P49356); assay = enzyme activity, inhibitor, scintillation proximity; system = leukaemia patients, leukaemic blasts; setting = 200 mg/m^2, 10 days, range; scale = reference: pretreatment; inhibition = 38 to 82%
SMILES = CC[C@@H]1[C@H](F)C(=O)N[C@@H]1COc1nccc2cc(C(N)=O)c(OC)cc12; target or system = VRK2 (Homo sapiens, UniProt Q86Y07); assay = ATP-site probe binding, ActivX profiling; system = THP-1 cell lysate; setting = 0.2 mM, Lys2 site; inhibition = -28.4%
SMILES = Cc1cccc(N(O)N=Nc2ccc(S(=O)(=O)Nc3onc(C)c3C)cc2)c1; target or system = α-glucosidase, rat intestine; assay = enzyme activity; setting = 20 µg/mL, with: 4-nitrophenyl α-D-glucopyranoside; inhibition = 8.75 ± 0.166%
SMILES = Cc1nn(-c2nc3c(F)cc(F)cc3s2)c(O)c1C(c1ccccc1C(F)(F)F)c1c(C)nn(-c2nc3c(F)cc(F)cc3s2)c1O; target or system = Cyclic GMP-AMP synthase, catalytic domain; with DNA (CGAS, Homo sapiens, UniProt Q8N884); assay = cGAS phase separation, inhibitor; setting = 200 µM; inhibition = 98.2%
SMILES = CN(Cc1ccccc1Cl)[C@@H]1c2ccccc2C2(CCNCC2)[C@H]1O; target or system = Luciferin 4-monooxygenase; assay = luciferase luminescence, inhibitor; system = cell-free; setting = 50 µM, counter-screen; inhibition = 4.58%
SMILES = CN1CCc2cc(Cl)c(O)cc2[C@@H](c2ccccc2)C1; target or system = DRD1; assay = cAMP level, antagonist, TR-FRET; system = U2OS expressing human D1R; setting = concentration not given, with: dopamine 10 nM; inhibition = 91%
SMILES = O=c1c(O[C@@H]2O[C@H](CO)[C@H](O)[C@H](O)[C@H]2O)c(-c2cc(O)c(O)c(O)c2)oc2cc(O)cc(O)c12; target or system = Adhesin FmlH, lectin domain (Escherichia coli, UniProt Q1RBS0); assay = binding to desialylated mucin, ELISA competition; system = UPEC UTI89; setting = 100 µM; inhibition = 10.7 ± 7.2%
SMILES = COc1ccc(S(=O)(=O)N(CC(=O)NO)CC(C)C)cc1; target or system = MMP2 (Homo sapiens, UniProt P08253); assay = fluorometric; setting = 0.1 ng/mL; inhibition = 49%
SMILES = NC/C(=C\F)COc1cccc(Cn2c(=S)[nH]c(=O)c3[nH]cnc32)c1; target or system = rat NMDA receptor; assay = radioligand binding; setting = 10 µM, agonist site; inhibition = < 50%
SMILES = COc1cccc(OC[C@H]2CN(CCN3CCc4ccccc43)CCO2)c1; target or system = DRD1; assay = radioligand binding; setting = concentration not given, with: [3H]SCH23390; inhibition = 37.6%
SMILES = O=C(NO)c1ccc(CN2CCCCc3ccccc32)c(F)c1; target or system = OPRD1 (Homo sapiens, UniProt P41143); assay = radioligand binding, radioligand displacement; setting = 10 µM, mean of replicates; inhibition = 14.2%
SMILES = COc1cc(C(=O)NS(=O)(=O)c2ccccc2C)ccc1Cc1cn(C)c2ccc(NC(=O)OC3CCCC3)cc12; target or system = LRRC8A/LRRC8C (Homo sapiens, UniProt Q8IWT6+Q8TDW0, L134K/L136K); assay = ion current, inhibitor, whole-cell patch clamp; system = HCT116 LRRC8 knockout, transfected; setting = 100 µM, +100 mV, mutant L134K/L136K; inhibition = 88.1%
SMILES = CN(C)[C@@H]1C(O)=C(C(N)=O)C(=O)[C@@]2(O)C(O)=C3C(=O)c4c(O)cccc4[C@@](C)(O)[C@H]3C[C@@H]12; target or system = Palmitoyl-protein thioesterase 1; assay = Spectrum Collection screen; setting = concentration not given, with: substrate 20 µM; inhibition = 61.7%
SMILES = CCCN(O)N=Nc1ccc(S(=O)(=O)Nc2onc(C)c2C)cc1; target or system = α-glucosidase, rat intestine; assay = enzyme activity; setting = 120 µg/mL, with: 4-nitrophenyl α-D-glucopyranoside; inhibition = 27.5 ± 0.09%
SMILES = CC1CCCN(c2nc(C(=O)NC3CC3)cs2)C1 (stereo not shown); target or system = Luciferin 4-monooxygenase; assay = luciferase luminescence, inhibitor; system = cell-free; setting = 50 µM, counter-screen; inhibition = 39%
SMILES = OCC(O)CN1CCN(c2ccccc2)CC1 (stereo not shown); target or system = THP-1; assay = pyroptotic LDH release; setting = 2 µM, 40 min, with: LPS then nigericin; inhibition = 43.2%
SMILES = O=C(Cn1ncc(N2CCCC2)cc1=O)OCc1ccccc1; target or system = Luciferin 4-monooxygenase; assay = luciferase luminescence, inhibitor; system = cell-free; setting = 50 µM, counter-screen; inhibition = 78.7%
SMILES = Cc1ccc(C(=O)Nc2ccc3ccccc3c2)o1; target or system = Cacna1b; assay = ion current, inhibitor, whole-cell patch clamp; setting = 10 µM; inhibition = 3.8% and 10% and 8.2% and 10.1% and 7.4%
SMILES = CCN1CCN(C2(C(=O)NCc3cnc(C)cn3)Cc3ccccc3C2)CC1; target or system = Luciferin 4-monooxygenase; assay = luciferase luminescence, inhibitor; system = cell-free; setting = 50 µM, counter-screen; inhibition = 5.83%
SMILES = Cc1ccnc(C)c1OC[C@H]1CN(CCN2CCc3ccccc32)CCO1; target or system = HTR1E; assay = radioligand binding; setting = concentration not given, with: [3H]5-HT; inhibition = -10%
SMILES = CCN1CCN(Cc2ccc(NC(=O)c3ccc(C)c(/C=C/c4cnc5[nH]ccc5c4OC)c3)cc2C(F)(F)F)CC1; target or system = KSR1 (Homo sapiens, UniProt Q8IVT5); system = A-375; setting = 0.5 µM; inhibition = -19.7%
SMILES = O=C(O)/C=C/C=C/c1ccccc1; target or system = Luciferin 4-monooxygenase; assay = luciferase luminescence, inhibitor; system = cell-free; setting = 50 µM, counter-screen; inhibition = 20.1%
SMILES = Cc1noc(NS(=O)(=O)c2ccc(N=NN(C)O)cc2)c1C; target or system = α-glucosidase, rat intestine; assay = enzyme activity; setting = 20 µg/mL, with: 4-nitrophenyl α-D-glucopyranoside; inhibition = 3.25 ± 0.16%
SMILES = CN(C)c1ccc2nc3ccc(=[N+](C)C)cc-3sc2c1; target or system = Palmitoyl-protein thioesterase 1; assay = Spectrum Collection screen; setting = concentration not given, with: substrate 20 µM; inhibition = 60.9%
SMILES = O=C(CN1CCO[C@@H](COc2ccccn2)C1)N1CCc2ccccc21; target or system = DRD1; assay = radioligand binding; setting = concentration not given, with: [3H]SCH23390; inhibition = 47.9%
SMILES = CSCC(=O)N1CCOC(Cc2cccc3ccccc23)C1 (stereo not shown); target or system = Luciferin 4-monooxygenase; assay = luciferase luminescence, inhibitor; system = cell-free; setting = 50 µM, counter-screen; inhibition = 58.9%
SMILES = Cc1ncccc1OC[C@H]1CN(CCN2CCc3ccccc32)CCO1; target or system = DRD1; assay = radioligand binding; setting = concentration not given, with: [3H]SCH23390; inhibition = 44%
SMILES = CNC(=O)c1ccccc1Sc1ccc2c(/C=C/c3ccccn3)n[nH]c2c1; target or system = Luciferin 4-monooxygenase; assay = luciferase luminescence, inhibitor; system = cell-free; setting = 50 µM, counter-screen; inhibition = 69.5%
SMILES = CCCc1nn(C)c2c(=O)[nH]c(-c3cc(S(=O)(=O)N4CCN(C)CC4)ccc3OCC)nc12; target or system = Palmitoyl-protein thioesterase 1; assay = Spectrum Collection screen; setting = concentration not given, with: substrate 20 µM; inhibition = 61.2%
SMILES = COc1cccc(OC[C@@H]2CN(CC(=O)N3CCc4ccccc43)CCO2)c1; target or system = HTR1E; assay = radioligand binding; setting = concentration not given, with: [3H]5-HT; inhibition = -11.4%
SMILES = COc1ccc(F)cc1C(=O)NCc1ccc(-c2nn([C@@H](C)C(F)(F)F)c(N)c2C(N)=O)cc1; target or system = STE20-related kinase adapter protein beta (Homo sapiens, UniProt Q9C0K7); assay = target engagement, competitive chemoproteomics; system = human PBMCs; setting = 0.01 µM; inhibition = 10.8%
SMILES = O=C(CN1CCO[C@H](COc2cccnc2)C1)N1CCc2ccccc21; target or system = HTR1E; assay = radioligand binding; setting = concentration not given, with: [3H]5-HT; inhibition = -4.4%
SMILES = OCCCN1CC[C@@H]2C[C@H]1c1cc(-c3ccc(C(F)(F)F)cc3)ccc12; target or system = HTR1E; assay = radioligand binding, PDSP competition binding; setting = 10 µM; inhibition = < 50%
SMILES = CCN(O)N=Nc1ccc(S(=O)(=O)Nc2onc(C)c2C)cc1; target or system = α-glucosidase, rat intestine; assay = enzyme activity; setting = 300 µg/mL, with: 4-nitrophenyl α-D-glucopyranoside; inhibition = 60 ± 0.013%
SMILES = COc1ccc2c(c1)C(=O)N(CCCN1CCN(c3ccccc3OC)CC1)C2; target or system = DRD1; assay = radioligand binding; setting = concentration not given, with: [3H]SCH23390; inhibition = 49.5%

Some of these lines once more:
SMILES = CN1CCc2cc(Cl)c(O)cc2[C@@H](c2ccccc2)C1; target or system = DRD1; assay = cAMP level, antagonist, TR-FRET; system = U2OS expressing human D1R; setting = concentration not given, with: dopamine 10 nM; inhibition = 91%
SMILES = CCCc1nn(C)c2c(=O)[nH]c(-c3cc(S(=O)(=O)N4CCN(C)CC4)ccc3OCC)nc12; target or system = Palmitoyl-protein thioesterase 1; assay = Spectrum Collection screen; setting = concentration not given, with: substrate 20 µM; inhibition = 61.2%
SMILES = O=C(CN1CCO[C@H](COc2cccnc2)C1)N1CCc2ccccc21; target or system = HTR1E; assay = radioligand binding; setting = concentration not given, with: [3H]5-HT; inhibition = -4.4%
